# Measured values collected from several papers.
# Each numbered part is a random draw from the data of one study; scales do not carry over between parts. Positions count from the first letter of the parent shown.

# Block 1 — technique: protein binding microarray; form: double-stranded DNA, one strand shown; sample: in vitro; concentration: not given; reference: not given; direction: higher = stronger binding
# Target: Histone acetyltransferase KAT6A, winged helix 2, GST fusion (KAT6A, Homo sapiens, UniProt Q92794, residues 85-181)
# Setting: 8-mer, flanks averaged, mean of 2 arrays, mostly near background
# Residues (chain): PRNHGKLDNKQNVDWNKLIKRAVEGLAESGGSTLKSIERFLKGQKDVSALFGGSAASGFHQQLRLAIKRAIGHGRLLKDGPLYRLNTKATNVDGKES
Strand,E-score
CAGAACGA,0.041
TAACCACA,-0.251
GCCCTAAA,-0.147
TAGGCCGA,-0.116
ATATGAAC,-0.128
ACTAACAG,-0.0625
ATTTACGA,-0.0438
GGAGTCTA,-0.231
ATCACATG,-0.159
AACACGAG,-0.0337
CTAGGTAA,-0.253
ACCGCGCA,0.00977
ACTCACGG,0.0428
AGCCGTGC,0.00928
ATGCGCCG,0.048
AGCTCGTA,-0.0214
CGTGTTCA,0.0573
GATTTACA,0.0948
ATAGTAAA,-0.0407
TGAGGTAA,0.0321
CTCCCAGC,0.0333
ACAACGTA,-0.056
GGTTCAGA,0.0851
CGTAGACA,-0.353

# Block 2 — target: CCNA2, cyclin fold, Cln2 fusion (human); technique: yeast growth competition, sequencing; sample: yeast; setting: weak parent motif; reference: not given; direction: higher = stronger binding
# Starting sequence: EXO1 docking peptide (human); KPECGRVQRAIFQ
Variant,normalised enrichment score
P2A,0.74
Q8A,1.16
F12A,0.37
Q13A,0.81
E3A,0.891
G5A,0.0642

# Block 3 — technique: RNAcompete; form: RNA; sample: in vitro; concentration: 20 nM; setting: 7-mer, probes averaged, single round; reference: mean of 7-mers; direction: higher = stronger binding
# Target: PABPC1L2, full length, GST fusion (mouse, UniProt A0ABA7IW68)
# Residues (chain): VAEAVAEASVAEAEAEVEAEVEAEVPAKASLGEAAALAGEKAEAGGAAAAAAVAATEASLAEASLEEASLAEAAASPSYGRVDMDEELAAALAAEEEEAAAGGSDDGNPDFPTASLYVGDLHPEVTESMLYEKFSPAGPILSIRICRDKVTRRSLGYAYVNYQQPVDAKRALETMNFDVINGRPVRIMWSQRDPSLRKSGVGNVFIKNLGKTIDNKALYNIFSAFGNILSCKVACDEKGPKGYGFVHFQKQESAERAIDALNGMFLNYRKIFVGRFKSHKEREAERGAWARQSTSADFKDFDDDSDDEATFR
Strand,7-mer Z-score
UUGGACA,0.0297
CUUAACA,-0.155
GGGUAGA,0.457
UGGGUGA,0.00798
ACAGUUA,-0.0283
AGCGCGU,-0.179
UCCGUUG,-0.353
CAAAACC,0.729
UCGGACC,-0.204
CCGUGGA,0.075
GUCCCUA,-0.373
UCGGUGU,-0.104
CACCGGA,-0.0138
AUCACAA,0.354
GACACAA,0.178
CAUUCGA,-0.215
AAGAACA,0.602
UAGCAGG,-0.079
ACGGUCG,-0.304
ACUCGCC,-0.278
CUCUUCC,-0.595
UACCACA,-0.106
CGUCUUG,-0.481
GUUGCAG,-0.231

# Block 4 — technique: universal PBM; form: double-stranded DNA, one strand shown; sample: in vitro; concentration: 600 nM; direction: higher = stronger binding
# Target: Sal-like protein 4, full length isoform A (SALL4, Homo sapiens, UniProt Q9UJQ4, residues 1-1053)
# Sequence of UniProt Q9UJQ4 (whole entry, looked up): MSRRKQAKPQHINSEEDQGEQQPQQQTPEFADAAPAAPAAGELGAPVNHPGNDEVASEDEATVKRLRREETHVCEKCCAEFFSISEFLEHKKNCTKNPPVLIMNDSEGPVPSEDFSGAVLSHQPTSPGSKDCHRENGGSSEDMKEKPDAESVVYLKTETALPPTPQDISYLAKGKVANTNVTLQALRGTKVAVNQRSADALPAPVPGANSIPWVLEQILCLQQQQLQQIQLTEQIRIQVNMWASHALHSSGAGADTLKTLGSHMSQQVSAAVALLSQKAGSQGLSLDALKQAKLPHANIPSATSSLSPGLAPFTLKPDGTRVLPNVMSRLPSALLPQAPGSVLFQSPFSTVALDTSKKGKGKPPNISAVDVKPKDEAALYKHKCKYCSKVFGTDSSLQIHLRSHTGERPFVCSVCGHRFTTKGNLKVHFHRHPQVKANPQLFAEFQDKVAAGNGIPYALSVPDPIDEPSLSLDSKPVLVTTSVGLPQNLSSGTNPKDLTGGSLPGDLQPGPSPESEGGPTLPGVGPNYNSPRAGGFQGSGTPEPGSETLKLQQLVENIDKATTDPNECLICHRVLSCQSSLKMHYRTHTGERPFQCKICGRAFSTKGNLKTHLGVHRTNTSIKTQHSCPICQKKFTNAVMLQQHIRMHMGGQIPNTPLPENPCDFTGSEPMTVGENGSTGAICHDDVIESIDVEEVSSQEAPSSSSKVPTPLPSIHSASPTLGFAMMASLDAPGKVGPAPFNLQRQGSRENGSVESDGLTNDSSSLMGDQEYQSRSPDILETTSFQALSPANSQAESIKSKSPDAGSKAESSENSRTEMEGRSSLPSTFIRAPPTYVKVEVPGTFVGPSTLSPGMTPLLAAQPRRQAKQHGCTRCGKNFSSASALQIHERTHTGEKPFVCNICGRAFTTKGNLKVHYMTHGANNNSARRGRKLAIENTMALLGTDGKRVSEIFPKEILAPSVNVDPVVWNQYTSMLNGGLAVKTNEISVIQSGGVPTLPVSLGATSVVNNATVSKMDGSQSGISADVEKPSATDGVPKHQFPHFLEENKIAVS
# Setting: 8-mer, flanks averaged, mean of replicates
Strand,E-score
ACACCAAG,0.0084
ACGCGGTA,-0.209
AACTTATG,0.302
ACCGGTAC,-0.132
GAGGCGCA,-0.233
GAACAATC,0.0703
CCCAGTTA,-0.153
CTTGTTAA,0.193
GCGCGCAA,-0.107
ATTAATAA,0.464
TACAACAA,0.209
AATCTGCA,0.0793
AGTTAGAT,0.199
CTTAGAAA,0.0838
GCCAAGAC,-0.0918
ATCAAAAG,0.165
GCAAGCTA,-0.0722
GAACAGGC,-0.118
CCACGCGA,-0.158

# Block 5 — technique: RNA Bind-n-Seq; form: RNA; sample: in vitro; concentration: 365 nM; reference: no-protein control; direction: higher = stronger binding
# Target: RNA binding protein fox-1 homolog 2, RRM domain, GST-SBP tag (RBFOX2, Homo sapiens, UniProt O43251-10, residues 100-194)
# Setting: natural RNA segment, single round, ends assumed
# Shared flanks, not repeated: GGGAGUUCUACAGUCCGACGAUC … UGGAAUUCUCGGGUGCCAA
# Target sequence (chain): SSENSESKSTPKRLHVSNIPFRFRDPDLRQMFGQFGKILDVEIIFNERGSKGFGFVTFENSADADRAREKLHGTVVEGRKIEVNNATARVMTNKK
Strand,RBNS enrichment (R)
GACCUUCCUCUAUCCCCUGCCCAUCCUCCCUUUUACCUCCUCUCUUUUUUAAACACCUGUUUAUCCCAACCUUUUUGAGCUCAAGCUGUGAUAAAGAAGGGCCCAUCCUA,0.702
UUAGCUAGGCGAGUACAGACGGGGCCUGGGAGGGGGCAGAGAUGUUCCCCAGGCCCUGCCUGUGGUUCCUGCCUGGGCCUUGGCUGCUGCUGUGUGAGAGCUGCAUGUGA,2.56
CGGGCCGGCGGGGGUGGGGGGAACGUGGGGGAACCUGUGUUUCACGUGACUCAGCAGUGCCCGCCGCCGUCACCAGCUAUGCAUUCACUCCGUUUCCAGUGAGCAGAUGU,0.583
UACCAUUUUGAGGGGAUUUAUACAUAUUUUUAGAUAAAAUUAAAUGCUCUUAUUUUUCCAACAGCUAAACUACUCUUAGUUGAACAGUGUGCCCUAGCUUUUCUUGCAAC,1.57
CAGUGCCACGAGUUGAAAGCUUCCAUACUGAACACUAUCCUUUCACUAUAUAAGUAAAGCAAAUAUAUUAGGCCAGGAUCUCACUGAGGAAUUUGUCUUGUCAUCUUUUA,0.637
UUAAAAAUAAGAUAUAUAUACAUAUAUAUAUCCAAUACAAUGAACUUUGAAGAUUUCUCAGAAAACUCAGAAGAAACGCCCUCUUUCAGGAUAAAUGUGGUGUUCCUAGC,0.58
AUUUGGCACCUUUUCCUCACUUGUAGCUUCCCUAUGAUAGCUGAGCUAACCCUAAGGUUUCCUAGCUGUGGGAAGAGGUGAGUUCUUUGAGACCUCCGGCCUUAGGAAGU,0.215
GAUGAAAACGGAGAUGGGGAAGUGGACUUCAAGGAGUAUGUUGUGCUGGUGGCUGCUCUCACAGUGGCUUGUAACAACUUCUUCUGGGAGACCAGUUGAGCACAGUCUGU,0.31
GACAAGAAGCUUCCUGAGAUGGACAUUGAUUGAUUCCAACACUUGUUUAUAUUAAAACAGACUAUUAUAAAGCUUUAAGUUGUCAACUUUGUUCUGAAUAUCAACUAGAG,0.612
UUUGAUACAAUAGUCAAAACCAAACUACCUUGACAUUUUUCUAAGACAGCUUAAUGGCUGAUGCUCGUCUUCACAGCCCGUGGCGGGCUUUAACGUAGCUCGAAUCUGGU,0.322
CAGGCAGACUCAUCUCCGCAGAGCAUACCAGCCGUGGGGGACCGUUCGACUUGAUGAUGUGUGCACACUUCAGGUGGUGGGGACUUGAGCUUUAAAAAAACCUCCACAGC,0.641
UUUGGCCUUGAACAAAACCAAGUCCACUGGGGACAGAGGCAGGGGCAAGUGGCUCUCCCCAUUACCUUCUCAAGACCUCAGUGGGAGCACCAGCCAAUGGUACCAUCGGC,0.346

# Block 6 — technique: protein-binding microarray; form: double-stranded DNA, one strand shown; sample: in vitro; concentration: 250 nM; setting: 60-bp whole probe; together with: salmon DNA 0.4 mg/ml; reference: random background probes; direction: higher = stronger binding; shared flanks, not repeated: GCCTAGCAC … GTCTTGATTCGCTTGACGCTGCTG
# Target: Interferon regulatory factor 5, full length, phosphomimetic (IRF5, Homo sapiens, UniProt Q13568-2, residues 1-514, K96S/S451D/S453D/S456D/S462D)
Strand,log fluorescence
GACGAACTGAGTCTCGAAACGTGCTAG,0.396 z-score
GACGGTATCGGGACTCGGGACGTGCTA,1.22 z-score
CTAGATTTCAGACTGGATTAGTGCTAG,0.122 z-score
GACGGTATCCTTTTCCCGACGTGCTAG,0.777 z-score
TTAGTTCTCCTACTGCTTTAGTGCTAG,0.453 z-score
TGCCCTCTAACTTCCCAATGGTGCTAG,-0.216 z-score
TTAGCTCTCGGTCTCGGTTAGTGCTAG,1.22 z-score
GACGAACTGAGTGTCGAGACGTGCTAG,-0.15 z-score
TCACTTCTATAGGCTAGAACTGTGCTA,0.175 z-score
TTAGAAATCGGGTTTCGATTAGTGCTA,7.78 z-score
GGTCTTTCTGTTTTCTCCATGTGCTAG,5.48 z-score
TTAGGTATCCTTTACCTTTAGTGCTAG,0.113 z-score
TTAGGTATTGGGTTTCGGTTAGTGCTA,7.75 z-score
TTAGGTCTCCTACTGCTCTAGTGCTAG,-0.197 z-score
GACAGTCTCGGTTTCGGGACGTGCTAG,4.72 z-score
TCAATTCTCTGTTTATGACTGTGCTAG,1.02 z-score
GACGGACTGCTTCTCCTGTCGTGCTAG,-0.158 z-score
TCAATTGTGCAATCTTAAACTGTGCTA,0.536 z-score
TTAGGACTGGGGTTTAGGTTAGTGCTA,-0.173 z-score
TTAGGACTGGGACTGGGTTGGTGCTAG,-0.478 z-score
GTATGACTCTGCCTCTAACTGTGCTAG,-0.194 z-score
GACGGTTTCGACTGTCGGGACGTGCTA,5.87 z-score

# Some of these lines once more (block 1):
Strand,E-score
GATTTACA,0.0948
ATCACATG,-0.159
ATAGTAAA,-0.0407
ACCGCGCA,0.00977
ACTCACGG,0.0428
AGCTCGTA,-0.0214
ATTTACGA,-0.0438
CGTAGACA,-0.353
TAGGCCGA,-0.116
CTAGGTAA,-0.253
TAACCACA,-0.251
